Assay results of several laboratories.
A part holds a random share of what one study measured.

Study 1
Target: Histone acetyltransferase KAT6A, winged helix 1, GST fusion (KAT6A, Homo sapiens, UniProt Q92794, residues 1-85)
Method: protein binding microarray
Molecule type: double-stranded DNA, one strand shown
Matrix: in vitro
Concentration: not given
Notes: 8-mer, flanks averaged, mean of 2 arrays, mostly near background
Reference: not given
Direction: higher = stronger binding
Target sequence (chain): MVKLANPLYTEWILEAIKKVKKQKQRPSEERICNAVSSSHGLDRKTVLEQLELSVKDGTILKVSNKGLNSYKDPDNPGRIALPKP
Sequence	E-score
CAGCTGAA	-0.221
CGTGAAAA	0.00124
CTGTGGGC	-0.245
GGATATGA	0.0642
CGTGAAGC	0.167
CAAAGACA	-0.212
AGGAGAGG	-0.163
ATGCAATA	-0.244
CGCATCTA	0.177
CCCCCGAG	0.133
GGACCCGA	0.135
CTATTTGA	-0.0914
AAGTGTTG	-0.192
GTTTCGAA	0.0622
ATTCACCC	-0.142
GTCACTGA	-0.0876
CCCTGTAG	-0.115
AACGGATA	0.147
CAGTCTGA	-0.131
ACACTCAG	-0.144
GGTAAGGA	-0.0376
CGAAGCAA	-0.0811
CTGTTCCA	-0.259
CCTTAGTA	0.0473
ATCCCTCC	-0.0984

Study 2
Target: RNA binding protein fox-1 homolog 2, RRM domain, GST-SBP tag (RBFOX2, Homo sapiens, UniProt O43251-10, residues 100-194)
Method: RNA Bind-n-Seq
Molecule type: RNA
Matrix: in vitro
Concentration: 365 nM
Notes: natural RNA segment, single round, ends assumed
Reference: no-protein control
Direction: higher = stronger binding
All sequences stand within: GGGAGUUCUACAGUCCGACGAUC … UGGAAUUCUCGGGUGCCAA
Construct (chain): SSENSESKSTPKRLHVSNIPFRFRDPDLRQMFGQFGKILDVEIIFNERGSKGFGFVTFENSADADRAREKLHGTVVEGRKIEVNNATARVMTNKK
Sequence	RBNS enrichment (R)
AGCUACAUUUUUUUUUGGUAGAGACAGGGUCUCACUAUGUUACCCAGUCUGGUCUCAAACUCCCGGCCUCAAGCAAUCCUCCCACUGGCCUCACAAUGUUGGGAUUACAG	0.195
AGUAUUUUCAGACUGAAGAAAACUUUGAAAAGUCAGGAGCUAAGCUGCUCGGAGCUCAGUGCCGCAGCAUGGCUGUGGUGGACGCGGGAAACAACGGGAAAGUUCUUGAC	0.241
GAGAUGAGUUCCUUGUAGGUACCAGCUUCUGGCUCAAGAGUUGAAGGUGCCAUCGCAGGGUCAGGCCUGCCCUGUCCCGAAGUGAUCUCCUGGAAGACAAGUGCCUUCUC	0.308
UAAAUGUCCCGUAGAUUCUUCCUGUAGGAAAACGUUACAAGUAUUCAAAGACAGCUAGCUGUCACUGGUGCUCCCCCCAAAGCGUUUCACCCCCUUCUGUGCAUCUUAGG	1.2
GUGCGUGGGAAGACAUGCCCCAGGCCCAGCCCUGACCACAUGUGUUGCUAAUUCCUGUCUGGUUCCUCUCUGGCAGAGCUUGGGAGGCACAAGAGAUCCUUUUCUCUUUC	0.345
ACCAGAGAGCCCUUGGUCCCAGGUCUCUUGAGCUUUUGUGUCAUGUUGCAGCAGAGUGAAGAUGGGGGGUUGGGGGUUAUUUAUUUUGCUUGUCCUUAUCCCUGCUUGGA	3.31
GAGAAAUAGCAAGCAUGUCCUGUUGCUUAACGUGUCCUUGUGAAUUGCUUGGUUUUGAUUAAAGUCUGAGCCUGAUACUGAUAUGAUUUUAAAGCGUAGCUGAACCGACU	17.9
UAACCAUAAUACUGUGAUCAUUAUUUGGAAAUAUGUCCUAUGGAAAGAAUAAAAGCAUGUACUUCACAGCUAGCAUGUUCACAGAUUUGAAAGAAGUUUCAUUAAAAGCA	4.28

Study 3
Target: Centromere-binding protein 1, full length, N-terminal tag (CBF1, Saccharomyces cerevisiae, UniProt P17106, residues 1-351)
Sequence of UniProt P17106 (whole entry, looked up): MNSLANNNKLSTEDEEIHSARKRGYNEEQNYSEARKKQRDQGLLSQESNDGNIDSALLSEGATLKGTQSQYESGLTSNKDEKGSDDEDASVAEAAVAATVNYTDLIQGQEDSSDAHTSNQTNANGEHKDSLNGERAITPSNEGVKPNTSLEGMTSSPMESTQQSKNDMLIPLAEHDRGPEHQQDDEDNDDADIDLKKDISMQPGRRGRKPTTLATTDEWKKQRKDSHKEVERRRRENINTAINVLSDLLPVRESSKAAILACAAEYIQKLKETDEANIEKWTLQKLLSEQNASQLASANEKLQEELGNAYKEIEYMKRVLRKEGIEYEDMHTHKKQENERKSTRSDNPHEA
Method: protein-binding microarray
Molecule type: double-stranded DNA, one strand shown
Matrix: in vitro
Concentration: 0.8 µM
Notes: whole 60-bp probe, no competitor
Direction: higher = stronger binding
All sequences stand within: … GTCTTGATTCGCTTGACGCTGCTG
Sequence	fluorescence intensity
GAAAGCCTTTGAATGATCGTGCTGACCGTAATTTAG	581 a.u.
GAACGTGCTGAGATCTACCTGACGGGCGGTGAATAG	491 a.u.
CTACCCTTTTCTGATCTGATGTTCTCACGCTCTTTC	540 a.u.
CTAGGTGACAAAGGTGATGCAATTACTGACACATTC	555 a.u.
GAAATGGTGAAAAACCACGTTCTCGAAGCCAATTAG	598 a.u.
CTAGGGGATTTCCCACGTGCTCCAACAAACGGTTTC	3970 a.u.
GAAACAAAATATGATCACATCACTTCTTAAATGTAG	574 a.u.
TGTACGAAGCTATATTAGCCATCTATAGTAGTTAGG	507 a.u.
GAACGTTGGGTTATCCACGGGGTTTTCTGAGCATAG	571 a.u.
GAAAGTTTATACCCCCACGTATTTTCCTCCGCATAG	515 a.u.
GAAATCTGTGCCCATGTGATCTGTACCTTTTTTTAG	3070 a.u.
CTATAGACAGAAAATCACGCCTGTAGGGGTCCATTC	571 a.u.
GAATTGGAAAAATGTCACGCGTAAAAATTAGACTAG	1360 a.u.
CTATTTATTTACTGTCACCTTGATGAGCGACTATTC	561 a.u.
CTATCAAAGTCTACATGTGACACAAAGAAAACCTTC	3270 a.u.
CTATGTGTGCGACGACACATGATCATATGGCATTTC	2080 a.u.
TGTACGAAGCTATACTACACCTGTATAGTAGTTAGG	492 a.u.
GAAAAGATCGTAAGCAACGTGTTCAACACGTACTAG	1630 a.u.
TGTACGAAGCTATATGATGCAACTATAGTAGTTAGG	524 a.u.

Study 4
Target: Sal-like protein 4, full length isoform B (SALL4, Homo sapiens, UniProt Q9UJQ4-2, residues 1-616)
Method: universal PBM
Molecule type: double-stranded DNA, one strand shown
Matrix: in vitro
Concentration: not given
Notes: 8-mer, flanks averaged, mean of replicates
Direction: higher = stronger binding
Target sequence (chain): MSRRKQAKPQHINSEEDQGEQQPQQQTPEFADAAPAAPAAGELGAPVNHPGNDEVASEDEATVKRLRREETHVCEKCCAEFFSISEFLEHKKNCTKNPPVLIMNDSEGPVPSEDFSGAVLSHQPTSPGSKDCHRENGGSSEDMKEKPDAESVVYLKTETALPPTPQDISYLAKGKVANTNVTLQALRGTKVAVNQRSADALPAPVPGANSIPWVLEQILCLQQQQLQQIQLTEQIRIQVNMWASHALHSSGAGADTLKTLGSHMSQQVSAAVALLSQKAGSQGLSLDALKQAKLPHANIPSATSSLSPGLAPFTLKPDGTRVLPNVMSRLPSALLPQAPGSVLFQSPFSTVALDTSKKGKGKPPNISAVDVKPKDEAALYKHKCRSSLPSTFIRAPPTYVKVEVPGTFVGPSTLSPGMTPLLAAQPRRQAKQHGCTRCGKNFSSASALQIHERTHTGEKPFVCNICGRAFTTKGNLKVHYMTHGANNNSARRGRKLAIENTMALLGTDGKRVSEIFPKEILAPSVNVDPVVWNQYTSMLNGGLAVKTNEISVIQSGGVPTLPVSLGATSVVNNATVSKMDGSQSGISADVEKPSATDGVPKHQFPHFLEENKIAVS
Sequence	E-score
CGTGAGAG	-0.114
AATCAAAT	0.296
TCCTCGAA	-0.0652
AGCCACCC	-0.232
AACAACAG	0.0486
CAGCCCTG	-0.313
CGAAAGGA	0.106
AGGAGATG	0.0797
CACCGGTA	-0.222
CCTCGCAG	-0.215
GTTATCAA	0.164
CGGTACGC	-0.184
TAATTGGA	0.206
AACGTCAA	0.23
GAGACTTA	0.0422
CGGCCGTA	-0.159
GTCCTTCA	0.0497
TCCGATCA	-0.018
TAGATCTA	0.266
ATCGAAAT	0.126
GGGCGGCA	-0.428
TGAGAACA	0.0963
CACAAAAG	-0.114
ACCTGAAG	0.00734
ACGTTTAT	0.296

A few entries again (study 3):
Sequence	fluorescence intensity
TGTACGAAGCTATATGATGCAACTATAGTAGTTAGG	524 a.u.
GAATTGGAAAAATGTCACGCGTAAAAATTAGACTAG	1360 a.u.
CTATAGACAGAAAATCACGCCTGTAGGGGTCCATTC	571 a.u.
CTACCCTTTTCTGATCTGATGTTCTCACGCTCTTTC	540 a.u.
GAAATCTGTGCCCATGTGATCTGTACCTTTTTTTAG	3070 a.u.
CTAGGGGATTTCCCACGTGCTCCAACAAACGGTTTC	3970 a.u.
CTATTTATTTACTGTCACCTTGATGAGCGACTATTC	561 a.u.
GAACGTTGGGTTATCCACGGGGTTTTCTGAGCATAG	571 a.u.
